# Measurements gathered from unrelated publications.
# Each numbered part is a random draw from the data of one study; scales do not carry over between parts. Changes are numbered by the printed parent chain.

# Series 1
# Target: CEBPD, bZIP domain (human)
# Technique: DHFR protein complementation
# Sample: yeast
# Notes: single substitutions, most at no-binding floor
# Reference: wild-type JUN-FOS pair
# Direction: higher = stronger binding
# Starting sequence: JUN, bZIP domain (human); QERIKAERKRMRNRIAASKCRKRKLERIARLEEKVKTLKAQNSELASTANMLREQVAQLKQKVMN; partner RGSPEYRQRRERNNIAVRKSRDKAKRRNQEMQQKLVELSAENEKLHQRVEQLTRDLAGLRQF
Substitution,binding fitness [natural log]
M51S,-1.35
S47R,-1.28
V35N,-1.39
E54N,-1.45
S47Y,-1.3
T48I,-1.43
N42R,-1.48
A49G,-1.5

# Series 2
# Target: Prothrombin, mature alpha-thrombin (F2, Homo sapiens, UniProt P00734)
# Technique: aptamer microarray, sandwich
# Form: DNA with 2'F-ANA
# Sample: in vitro
# Tested at: 200 nM
# Notes: whole 15-mer aptamer, many near background
# With: Cy3 exosite-II aptamer, 400 nM
# Direction: higher = stronger binding
# Strand: GGTTGGTGTGGTTGG
Modification,mean fluorescence intensity [a.u.]
2'F-ANA at 5 10,45.4
2'F-ANA at 4 5 6 7 9 10 13 15,48.6
2'F-ANA at 6 8 9 10 11 13 14,85.8
2'F-ANA at 1 2 4 7 8 10 12 14,46
2'F-ANA at 2 3 6 9 10 13,345
2'F-ANA at 1 3 4 6 9 10 13 15,56.7
2'F-ANA at 9 10 11 12 15,173
2'F-ANA at 2 4 5 6 8 10 11 14 15,48.9

# Series 3
# Target: RING finger protein unkempt homolog, zinc fingers 1-6, GST-SBP tag (UNK, Homo sapiens, UniProt Q9C0B0, residues 30-357)
# Technique: RNA Bind-n-Seq
# Form: RNA
# Sample: in vitro
# Tested at: not given
# Notes: RNA with constant flanks, ends assumed
# Reference: input RNA pool
# Direction: higher = stronger binding
# Residues (chain): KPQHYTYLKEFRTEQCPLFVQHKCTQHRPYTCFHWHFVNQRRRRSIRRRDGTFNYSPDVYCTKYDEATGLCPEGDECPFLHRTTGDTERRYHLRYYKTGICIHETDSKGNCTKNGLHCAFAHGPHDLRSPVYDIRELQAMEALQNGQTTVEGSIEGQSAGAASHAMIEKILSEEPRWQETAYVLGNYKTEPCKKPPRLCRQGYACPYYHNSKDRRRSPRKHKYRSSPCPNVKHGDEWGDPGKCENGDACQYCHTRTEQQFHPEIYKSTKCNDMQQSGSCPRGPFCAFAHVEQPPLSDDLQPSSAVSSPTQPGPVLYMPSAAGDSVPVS
Strand,bound/input enrichment [ratio]
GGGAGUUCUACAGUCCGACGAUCAAGCGCAAGAAGAAUGACAUUUAUGGAGAAGACUAACAGCAGUACAUAUUAUGUAAUAAUCCGGACAAACUUAAAAUUUGGCAAAUAAUGUAUAUUGUAUGAAAUCAAUACUGUAAGCCCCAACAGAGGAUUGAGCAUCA,0.271
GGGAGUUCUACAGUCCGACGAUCUUUCUCGGGAUUAUUGCUCUUCUGUCUAUAAAUUUUGAAUGAUACUGUGCCUUAAUUGGUUUUCACCGUUUAAGUGUGUAUCAUUAUCAAAGUUGAUUAAUUUGGCUUCAUAGUAUAAUGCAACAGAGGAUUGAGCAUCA,0.625
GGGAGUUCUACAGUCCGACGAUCUAUGUGCCCAAUGUUCCAGAAGGAUCUGUGAGAAUCAUAGACCAGUCAAGCAAUGUGGAGACCGCAUCUUUUCCAAUUUAUAAAGUGCUUUUCUGUGCACGUGGGCAUGAUGGGACAGCCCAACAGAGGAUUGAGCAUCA,0.363
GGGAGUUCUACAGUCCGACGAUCCUCAAGCUACCAAAAAGAAAGUGGCAAUAUAUUGACUCAGGAUCUCAAAGCUGGGUGUUUCCGCAUUACUGUGUAAAGACUUGAAGGGACAGAAGUGAAGAAAAUAAGCUGCAAUUUUGUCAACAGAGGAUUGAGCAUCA,0.0839
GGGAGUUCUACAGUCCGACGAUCCAAAGCAUCCUAACAGGGUCGUUCCCAUACACAUUUGACCUGGUCAGCCUUUUCCAGGUGAACCGCCCCAGUUCUGACAUAAAGAAAGUUUUAUUUGUAUUUUACUACUGUUUGGUCAAUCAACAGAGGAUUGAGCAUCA,0.342
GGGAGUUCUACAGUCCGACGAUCCGAAUCCACUGCAGUAAAUCUUCAGUCCGCAGCAGGAGAAGCAGUCCUAAAAGGAAGCGCAACCGACACUGUUCAAGUCAUCAGUCACGUUCGAAGAGCCACCGAAGGAAAAGAUCCAGGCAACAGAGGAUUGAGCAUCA,0.102
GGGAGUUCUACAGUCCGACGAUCUCCCUCGCCUGUGGUAAACCAACACAGCGGGUCCUCACAAAAGAACCCAAGUCCAAGGAGACCGAAAGUGGCCACAUAUUUACAGUUAAUGAUCAAUUCACAUCUAAACUACACAGAGUCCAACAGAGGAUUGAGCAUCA,0.153
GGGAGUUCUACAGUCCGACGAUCCAUGUGACAAAAUUUUUUAACUAUAAGGUUGUACUGCUGGGAAAAUACAAUGCACAGGGCUCCGGUUCAGAUCAUGAAUUAAUGCUGAGAUGUACCAAAGGACGAGAAUACAUCAAAGUCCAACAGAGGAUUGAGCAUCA,0.236

# Further values, each from its own experiment
# Starting sequence: viral docking peptide; KKAKRRLFTISDS
Substitution,target,assay,test system,conditions,scale,measurement,result
AKAKRRLFTISDS [K1A],"CCNB1, cyclin fold, Cln2 fusion (human)","yeast growth competition, sequencing",yeast,weak parent motif,"reference: not given, higher = stronger binding",normalised enrichment score,0.713
